Measurements of several laboratories.
Lines come from different studies, so protocols differ. “And” joins repeats or separate records; there may be more than shown. ± gives the spread as reported.

CC(C)C[C@@H](NC(=O)CNC(=O)[C@@H](CCCCN)NC(=O)[C@@H](CC(C)C)NC(=O)[C@@H](CCCCN)NC(=O)[C@@H](CCCNC(=N)N)NC(=O)[C@@H](CC(C)C)NC(=O)[C@@H](CC(C)C)NC(=O)[C@@H](CCCNC(=N)N)NC(=O)[C@H](N)CCCNC(=N)N)C(=O)N[C@H](CCCCN)C(=O)N[C@H](CCCCN)C(=O)N[C@H](Cc1ccc(O)cc1)C(=O)N[C@H](CC(C)C)C(=O)N[C@H](Cc1ccc(O)cc1)C(=O)N[C@H](Cc1ccccc1)C(=O)N[C@H](CCCCN)C(=O)N[C@H](CC(C)C)C(=O)N[C@H](CCC(N)=O)C(=O)N[C@H](CC(C)C)C(=O)N[C@H](CC(C)C)C(=O)N[C@H](CCCCN)C(=O)N[C@H](CCCCN)C(N)=O — viability (HCT-116; MTT; 32 µM, 48 h): ~70%
C[C@]1(CO)Cc2ncn(-c3ccc(C#N)c(Cl)c3)c2C(=O)O1 — Cmax (human, plasma; 5 mg single dose, geometric mean): 201 nM
CCSc1nc2ccccc2n1Cc1nnc(-c2ccccc2OC)o1 — viability (neutrophils; fresh heparinized human blood; 200 µg/mL, 30 min): 74.1 ± 4.3%
Oc1ccc(C2(c3ccc(O)cc3)c3ccccc3-c3ccccc32)cc1 — viability (HepG2 spheroids; annexin V/PI flow cytometry; 10 µM, 96 h): 19.2 ± 13.6%
CCSc1nc2ccccc2n1Cc1nnc(-c2ccc(O)cc2)o1 — viability (neutrophils; fresh heparinized human blood; 200 µg/mL, 30 min): 80.4 ± 7.1%
CCOC(=O)c1ccc(NC(=O)CSc2nc(C)cc(-c3ccccc3)c2C#N)cc1 — viability (MDA-MB-231; MTT; 100 µM, 72 h): 18 ± 4%
COc1cc2c(Oc3ccc4[nH]c(C)cc4c3F)ccnc2cc1OCC1(N)CC1 — Leukopenia incidence (paediatric recurrent refractory sarcoma; 8 mg): 0%
CO[C@H]1C[C@@H]2CC[C@@H](C)[C@@](O)(O2)C(=O)C(=O)N2CCCC[C@H]2C(=O)O[C@H]([C@H](C)C[C@@H]2CC[C@@H](OC(=O)NCCOCCOCCOCCOCCOCCOCCOCCOCCC(=O)N3CCc4cc(Cn5nc(-c6ccc7oc(N)nc7c6)c6c(N)ncnc65)ccc4C3)[C@H](OC)C2)C[C@@H](O)[C@H](C)/C=C(\C)[C@@H](O)[C@@H](OC)C(=O)[C@H](C)C[C@H](C)/C=C/C=C/C=C/1C — AE leading to dose interruption (patients with advanced solid tumours; intravenous, 16 mg weekly, any grade): 100%
Cc1cc(C(F)(F)F)c2c(N)c(C(=O)Nc3cccnc3)sc2n1 — viability (MDA-MB-231; MTT; 100 µM, 72 h): 49 ± 6%
CCSc1nc2ccccc2n1Cc1nnc(-c2ccc(O)cc2O)o1 — viability (neutrophils; fresh heparinized human blood; 200 µg/mL, 30 min): 84.33 ± 0.1%
C[C@@H](O)[C@H](NC(=O)[C@@H]1CSSC[C@H](NC(=O)[C@@H](Cc2ccccc2)NC(=O)CN2CCN(CC(=O)[O-])CCN(CC(=O)[O-])CCN(CC(=O)[O-])CC2)C(=O)N[C@@H](Cc2ccc(O)cc2)C(=O)N[C@H](Cc2c[nH]c3ccccc23)C(=O)N[C@@H](CCCCN)C(=O)N[C@@H]([C@@H](C)O)C(=O)N1)C(=O)O.[177Lu+3] — retention (MEC1 treated with 200 µM zebularine; gamma counter; 15 min efflux after 2 h loading): 39.5%
C[C@@H]1O[C@@H](OC[C@H]2O[C@@H](Oc3c(-c4ccc(O)c(O)c4)oc4cc(O)cc(O)c4c3=O)[C@H](O)[C@@H](O)[C@@H]2O)[C@H](O)[C@H](O)[C@H]1O — viability (Caco-2; CCK-8; 20 µM, 24 h): 113%
CCSc1nc2ccccc2n1Cc1nnc(-c2ccc(C)cc2)o1 — viability (neutrophils; fresh heparinized human blood; 200 µg/mL, 30 min): 79.4 ± 3.1%
CN1CC[C@@H](c2c(O)cc(O)c3c(=O)cc(-c4ccc(C(F)(F)F)cc4Cl)oc23)[C@@H]1CO — patients with adverse event (refers to: Diarrhea; AML; oral, 150 mg, intermittent dosing): 25%
COC(=O)CNC(=O)CCSc1nc(C)cc(C)c1C#N — viability (MDA-MB-231; MTT; 100 µM, 72 h): 71 ± 7%
C[C@H]1CN(c2n[nH]c3nc(N[C@H]4CC[C@H](NS(=O)(=O)CCC(F)(F)F)CC4)ncc23)CCO1 — relative abundance (PRKACA (Homo sapiens, UniProt P17612); inhibitor, Kinobeads competition profiling; 20 µM; baseline: vehicle): 1.08
CSCC[C@H](NC(=O)[C@@H](N)Cc1ccc(O)cc1)C(=O)N[C@@H](Cc1ccc(O)cc1)C(=O)N[C@H](C(=O)N[C@@H](CCCCN)C(=O)N[C@@H](Cc1ccccc1)C(=O)N[C@@H](Cc1c[nH]cn1)C(=O)N[C@H](C(=O)N[C@@H](Cc1ccc(O)cc1)C(=O)O)[C@@H](C)O)[C@@H](C)O — IC50 (HLA class I histocompatibility antigen, A alpha chain, allele A*01:01 (Homo sapiens, UniProt P04439); binding): 6.74 µM
CCSc1nc2ccccc2n1Cc1nnc(-c2ccc(F)cc2)o1 — viability (neutrophils; fresh heparinized human blood; 200 µg/mL, 30 min): 55.5%
O=c1c(O[C@@H]2O[C@H](CO)[C@H](O)[C@H](O)[C@H]2O)c(-c2ccc(O)c(O)c2)oc2cc(O)cc(O)c12 — viability (Caco-2; CCK-8; 5 µM, 24 h): 93.7%
CCSc1nc2ccccc2n1Cc1nnc(-c2ccc([N+](=O)[O-])cc2)o1 — viability (neutrophils; fresh heparinized human blood; 200 µg/mL, 30 min): 13.1 ± 7.3%
COc1cc(Nc2ncc(F)c(Nc3ccc4c(n3)NC(=O)C(C)(C)O4)n2)cc(OC)c1OC — IC50 (Prothrombin (F2, Homo sapiens, UniProt P00734)): > 10 µM
CC[C@H](C)[C@H](NC(=O)[C@H](CC(C)C)NC(=O)[C@H](CCCNC(=N)N)NC(=O)[C@@H](N)CCCNC(=N)N)C(=O)N[C@@H](CCCNC(=N)N)C(=O)N[C@@H](CCCCN)C(=O)N[C@@H](CC(C)C)C(=O)N[C@@H](CCCCN)C(=O)NCC(=O)N[C@@H](CC(C)C)C(=O)N[C@@H](CCCCN)C(=O)N[C@@H](CCCCN)C(=O)N[C@@H](Cc1ccc(O)cc1)C(=O)N[C@@H](CC(C)C)C(=O)N[C@@H](Cc1ccc(O)cc1)C(=O)N[C@@H](Cc1ccccc1)C(=O)N[C@@H](CCCCN)C(=O)N[C@@H](CC(C)C)C(=O)N[C@@H](CCC(N)=O)C(=O)N[C@@H](CC(C)C)C(=O)N[C@@H](CC(C)C)C(=O)N[C@@H](CCCCN)C(=O)N[C@@H](CCCCN)C(N)=O — viability (HCT-116; MTT; 64 µM, 48 h): ~70%
Nc1ncnc2c1ncn2[C@@H]1O[C@@H]2COP(=O)(O)O[C@H]3[C@@H](O)[C@H](n4cnc5c(=O)[nH]cnc54)O[C@@H]3COP(=O)(O)O[C@H]2[C@H]1O — viability (HFF-1; 10 µg/mL): 101%
COCCOCCOCCNC(=O)c1sc2nc(C)cc(C)c2c1N — viability (MDA-MB-231; MTT; 100 µM, 72 h): 69 ± 12%
CSCC[C@H](NC(=O)[C@@H](N)CCCNC(=N)N)C(=O)N[C@@H](Cc1ccccc1)C(=O)NCC(=O)N1CCC[C@H]1C(=O)N[C@H](C(=O)N[C@@H](CCC(N)=O)C(=O)N[C@H](C(=O)N[C@@H](Cc1ccc(O)cc1)C(=O)O)[C@@H](C)O)C(C)C — IC50 (HLA class I histocompatibility antigen, A alpha chain, allele A*24:02 (Homo sapiens, UniProt P04439); binding): 3.87 µM
CCSc1nc2ccccc2n1Cc1nnc(-c2cccc(O)c2)o1 — viability (neutrophils; fresh heparinized human blood; 200 µg/mL, 30 min): 82.2 ± 1.1%
Cc1cccc(NC(=O)c2sc3nc(C)cc(C(F)(F)F)c3c2N)n1 — viability (MDA-MB-231; MTT; 100 µM, 72 h): 36 ± 3%
Cn1cc2cc(C(F)(F)c3nnc4ccc(-c5cnn(C6CC6)c5)nn34)c(F)cc2n1 — viability (MKN-45; CCK-8; 0.0125 µM, 72 h; baseline: untreated): 44% and 43% and 52.4%
Cc1cc(C)c2c(N)c(C(=O)NCc3ccccc3)sc2n1 — viability (MDA-MB-231; MTT; 100 µM, 72 h): 65 ± 3%
O=c1cc(-c2ccc(O)cc2)oc2c([C@@H]3O[C@H](CO)[C@@H](O)[C@H](O)[C@H]3O)c(O)cc(O)c12 — viability (Caco-2; CCK-8; 10 µM, 24 h): 92.7%
Cc1cc(-c2ccccc2)nc(SCC(=O)Nc2ccccc2)c1C#N — viability (MDA-MB-231; MTT; 100 µM, 72 h): 31 ± 3%
CC(C)c1ccc(C(=O)c2c(N)c(C(N)=O)c3ccccn23)cc1 — viability (THP-1-derived macrophages; 10 µM, 3 h): 100% and 95.8% and 92.9%
Cc1cccc(NC(=O)CSc2nc(C)cc(-c3ccccc3)c2C#N)n1 — viability (MDA-MB-231; MTT; 100 µM, 72 h): 17 ± 2%
CCSc1nc2ccccc2n1Cc1nnc(-c2ccccc2Cl)o1 — viability (neutrophils; fresh heparinized human blood; 200 µg/mL, 30 min): 30 ± 5.2%

For quick reference, copied from above:
Nc1ncnc2c1ncn2[C@@H]1O[C@@H]2COP(=O)(O)O[C@H]3[C@@H](O)[C@H](n4cnc5c(=O)[nH]cnc54)O[C@@H]3COP(=O)(O)O[C@H]2[C@H]1O — viability (HFF-1; 10 µg/mL): 101%
COCCOCCOCCNC(=O)c1sc2nc(C)cc(C)c2c1N — viability (MDA-MB-231; MTT; 100 µM, 72 h): 69 ± 12%
CSCC[C@H](NC(=O)[C@@H](N)CCCNC(=N)N)C(=O)N[C@@H](Cc1ccccc1)C(=O)NCC(=O)N1CCC[C@H]1C(=O)N[C@H](C(=O)N[C@@H](CCC(N)=O)C(=O)N[C@H](C(=O)N[C@@H](Cc1ccc(O)cc1)C(=O)O)[C@@H](C)O)C(C)C — IC50 (HLA class I histocompatibility antigen, A alpha chain, allele A*24:02 (Homo sapiens, UniProt P04439); binding): 3.87 µM
CCSc1nc2ccccc2n1Cc1nnc(-c2cccc(O)c2)o1 — viability (neutrophils; fresh heparinized human blood; 200 µg/mL, 30 min): 82.2 ± 1.1%
